Measured values pooled from the literature.
Compare with care: the assays were run in different laboratories.
Sample: plasma

Compound	test system	conditions	how to read	quantity	value
O=C(O)c1cccc(S(=O)(=O)Nc2ccccc2)c1	human, mild liver dysfunction	intravenous, 400 mg/m^2 belinostat, cycle 1 day -7, geometric mean	baseline: metabolite over belinostat	Cmax metabolic ratio	0.087
Cn1c(=O)oc2ccc(-c3ccc(CC(C#N)NC(=O)C4CNCCCO4)c(F)c3)cc21 (stereo not drawn)	human volunteers	40 mg single dose, fasted, geometric mean		Cmax	247 ng/mL
CN1CCC[C@]1(C)/C=C/S(=O)(=O)NC(=O)Nc1c2c(cc3c1CCC3)CCC2	human	oral, 12.5 mg twice daily, day 14, multiple ascending dose		Cmax after first dose	2000 ng/mL
CN[C@@H](CCOc1cccc2ccccc12)c1ccccc1	healthy male human	oral, dose not given, with: dapoxetine with udenafil	baseline: combination over dapoxetine alone	Cmax geometric mean ratio	0.879
CCOc1ccc(Cc2cc(C3OC(SC)C(O)C(O)C3OC3OC(C(=O)O)C(O)C(O)C3O)ccc2Cl)cc1 (stereo not drawn)	human	oral, 400 mg once daily, sotagliflozin, day 8	baseline: 200 mg dose	Cmax dose ratio	~2.4 fold
CONC(=O)/C=C/c1cccc(S(=O)(=O)Nc2ccccc2)c1	human, normal liver function	intravenous, 400 mg/m^2 belinostat, cycle 1 day -7, geometric mean	baseline: metabolite over belinostat	Cmax metabolic ratio	0.0948
CCc1c2c(nc3ccc(O)cc13)-c1cc3c(c(=O)n1C2)COC(=O)[C@]3(O)CC	human patients	intravenous, 100 mg/m^2 of parent drug		Cmax	182 ng/mL
NC(=O)/C=C/c1cccc(S(=O)(=O)Nc2ccccc2)c1	human, severe liver dysfunction	intravenous, 400 mg/m^2 belinostat, cycle 1 day -7, geometric mean	baseline: metabolite over belinostat	Cmax metabolic ratio	0.0759
CCc1cc(Nc2nc(-c3ccc(-n4cnc(C)c4)c(F)c3)cs2)c(C)cc1C	human, both sexes	oral, 200 mg once daily, day 14, multiple dose, geometric mean		Cmax	484 ng/mL

For quick reference, copied from above:
Compound	test system	conditions	how to read	quantity	value
Cn1c(=O)oc2ccc(-c3ccc(CC(C#N)NC(=O)C4CNCCCO4)c(F)c3)cc21 (stereo not drawn)	human volunteers	40 mg single dose, fasted, geometric mean		Cmax	247 ng/mL
